Published values of several laboratories.
Parts stem from different laboratories: compare values within a part only. “And” joins repeats or separate records; there may be more than shown.
UniProt Q15139, sequence (whole entry, looked up): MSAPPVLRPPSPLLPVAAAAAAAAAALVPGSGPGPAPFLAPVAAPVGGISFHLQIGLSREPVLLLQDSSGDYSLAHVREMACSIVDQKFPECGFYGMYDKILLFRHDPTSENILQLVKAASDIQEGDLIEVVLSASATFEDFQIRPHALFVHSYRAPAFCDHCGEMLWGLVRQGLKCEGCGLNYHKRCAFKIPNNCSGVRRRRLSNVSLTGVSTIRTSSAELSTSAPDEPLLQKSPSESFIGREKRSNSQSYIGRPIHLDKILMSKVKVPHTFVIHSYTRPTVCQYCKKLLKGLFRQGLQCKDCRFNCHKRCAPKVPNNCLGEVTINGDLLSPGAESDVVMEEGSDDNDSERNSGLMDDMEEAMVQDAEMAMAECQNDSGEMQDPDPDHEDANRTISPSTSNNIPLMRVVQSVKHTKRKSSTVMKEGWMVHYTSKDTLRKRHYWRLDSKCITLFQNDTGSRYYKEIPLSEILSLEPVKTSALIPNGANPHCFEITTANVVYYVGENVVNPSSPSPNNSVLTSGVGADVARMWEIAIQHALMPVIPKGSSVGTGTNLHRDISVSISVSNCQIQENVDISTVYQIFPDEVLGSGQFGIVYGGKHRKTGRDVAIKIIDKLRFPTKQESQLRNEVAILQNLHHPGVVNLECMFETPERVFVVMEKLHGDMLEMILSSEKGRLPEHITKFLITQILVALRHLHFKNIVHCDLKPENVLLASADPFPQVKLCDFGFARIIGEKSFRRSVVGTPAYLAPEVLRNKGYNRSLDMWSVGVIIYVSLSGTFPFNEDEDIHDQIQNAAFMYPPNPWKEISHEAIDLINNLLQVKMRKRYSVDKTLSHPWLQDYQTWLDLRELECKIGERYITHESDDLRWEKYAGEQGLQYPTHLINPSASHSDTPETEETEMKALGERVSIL
UniProt P50613, sequence (whole entry, looked up): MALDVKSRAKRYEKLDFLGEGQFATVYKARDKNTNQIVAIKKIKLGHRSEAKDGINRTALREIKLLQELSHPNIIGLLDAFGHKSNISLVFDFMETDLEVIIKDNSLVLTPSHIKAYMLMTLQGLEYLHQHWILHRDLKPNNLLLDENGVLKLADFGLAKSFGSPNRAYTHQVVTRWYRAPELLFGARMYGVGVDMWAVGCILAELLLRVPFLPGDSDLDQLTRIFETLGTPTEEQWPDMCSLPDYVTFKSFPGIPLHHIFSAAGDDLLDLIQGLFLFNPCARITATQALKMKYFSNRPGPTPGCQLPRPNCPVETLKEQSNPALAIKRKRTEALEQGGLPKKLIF
UniProt Q16288, sequence (whole entry, looked up): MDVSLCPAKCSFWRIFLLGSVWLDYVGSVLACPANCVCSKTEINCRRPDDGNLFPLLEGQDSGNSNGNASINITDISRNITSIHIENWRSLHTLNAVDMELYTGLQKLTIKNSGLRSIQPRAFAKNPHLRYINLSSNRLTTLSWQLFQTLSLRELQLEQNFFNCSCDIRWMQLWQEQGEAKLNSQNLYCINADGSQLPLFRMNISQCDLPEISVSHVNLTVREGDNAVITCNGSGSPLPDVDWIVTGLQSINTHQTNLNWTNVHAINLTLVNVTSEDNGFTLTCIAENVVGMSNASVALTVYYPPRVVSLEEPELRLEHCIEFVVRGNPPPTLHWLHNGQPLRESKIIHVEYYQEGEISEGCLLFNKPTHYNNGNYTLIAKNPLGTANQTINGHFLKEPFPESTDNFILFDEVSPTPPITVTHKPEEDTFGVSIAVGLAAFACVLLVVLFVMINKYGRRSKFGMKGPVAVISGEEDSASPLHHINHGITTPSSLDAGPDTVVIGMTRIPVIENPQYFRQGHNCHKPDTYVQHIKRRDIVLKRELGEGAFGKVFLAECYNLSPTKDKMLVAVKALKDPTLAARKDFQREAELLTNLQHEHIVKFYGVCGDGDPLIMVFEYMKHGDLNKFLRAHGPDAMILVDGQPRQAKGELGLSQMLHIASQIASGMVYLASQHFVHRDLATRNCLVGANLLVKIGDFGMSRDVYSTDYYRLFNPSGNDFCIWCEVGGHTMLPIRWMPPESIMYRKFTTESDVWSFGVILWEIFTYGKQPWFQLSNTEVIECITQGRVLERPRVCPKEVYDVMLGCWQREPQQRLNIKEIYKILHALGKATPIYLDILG
UniProt Q96NX5, sequence (whole entry, looked up): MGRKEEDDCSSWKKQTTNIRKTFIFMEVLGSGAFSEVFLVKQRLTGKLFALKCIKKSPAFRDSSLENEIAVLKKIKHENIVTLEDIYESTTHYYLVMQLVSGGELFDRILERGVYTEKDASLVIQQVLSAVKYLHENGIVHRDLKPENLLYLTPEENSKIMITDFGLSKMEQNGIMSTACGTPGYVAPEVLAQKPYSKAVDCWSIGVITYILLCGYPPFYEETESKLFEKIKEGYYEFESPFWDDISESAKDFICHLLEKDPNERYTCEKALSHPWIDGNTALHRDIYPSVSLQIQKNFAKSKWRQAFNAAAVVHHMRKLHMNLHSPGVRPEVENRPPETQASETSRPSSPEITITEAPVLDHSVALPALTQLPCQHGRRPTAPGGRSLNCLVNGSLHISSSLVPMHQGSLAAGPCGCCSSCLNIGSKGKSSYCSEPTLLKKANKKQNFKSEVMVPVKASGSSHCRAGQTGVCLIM
UniProt P21918, sequence (whole entry, looked up): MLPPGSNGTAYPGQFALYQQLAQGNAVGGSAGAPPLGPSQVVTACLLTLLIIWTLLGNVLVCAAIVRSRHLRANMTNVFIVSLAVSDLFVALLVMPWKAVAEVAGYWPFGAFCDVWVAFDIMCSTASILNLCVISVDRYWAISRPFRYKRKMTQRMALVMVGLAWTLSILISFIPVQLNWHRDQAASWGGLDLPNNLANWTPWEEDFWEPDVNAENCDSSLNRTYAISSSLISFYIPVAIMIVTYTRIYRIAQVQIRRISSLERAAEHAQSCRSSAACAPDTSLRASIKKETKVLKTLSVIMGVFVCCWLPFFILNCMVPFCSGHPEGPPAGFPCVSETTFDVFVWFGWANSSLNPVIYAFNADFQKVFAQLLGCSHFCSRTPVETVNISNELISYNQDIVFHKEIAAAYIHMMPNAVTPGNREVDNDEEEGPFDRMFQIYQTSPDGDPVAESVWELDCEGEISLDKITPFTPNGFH
UniProt P35372, sequence (whole entry, looked up): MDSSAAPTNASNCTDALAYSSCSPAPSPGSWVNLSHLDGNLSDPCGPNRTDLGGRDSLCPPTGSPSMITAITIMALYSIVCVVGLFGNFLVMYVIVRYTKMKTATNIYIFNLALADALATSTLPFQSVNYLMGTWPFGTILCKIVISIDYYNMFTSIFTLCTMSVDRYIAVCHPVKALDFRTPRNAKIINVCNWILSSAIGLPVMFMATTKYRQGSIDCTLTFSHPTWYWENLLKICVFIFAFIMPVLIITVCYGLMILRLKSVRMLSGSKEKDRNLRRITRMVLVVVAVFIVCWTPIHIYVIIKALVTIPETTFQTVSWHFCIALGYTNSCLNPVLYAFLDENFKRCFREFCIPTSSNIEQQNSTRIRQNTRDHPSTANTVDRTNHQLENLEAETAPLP
UniProt Q09013, sequence (whole entry, looked up): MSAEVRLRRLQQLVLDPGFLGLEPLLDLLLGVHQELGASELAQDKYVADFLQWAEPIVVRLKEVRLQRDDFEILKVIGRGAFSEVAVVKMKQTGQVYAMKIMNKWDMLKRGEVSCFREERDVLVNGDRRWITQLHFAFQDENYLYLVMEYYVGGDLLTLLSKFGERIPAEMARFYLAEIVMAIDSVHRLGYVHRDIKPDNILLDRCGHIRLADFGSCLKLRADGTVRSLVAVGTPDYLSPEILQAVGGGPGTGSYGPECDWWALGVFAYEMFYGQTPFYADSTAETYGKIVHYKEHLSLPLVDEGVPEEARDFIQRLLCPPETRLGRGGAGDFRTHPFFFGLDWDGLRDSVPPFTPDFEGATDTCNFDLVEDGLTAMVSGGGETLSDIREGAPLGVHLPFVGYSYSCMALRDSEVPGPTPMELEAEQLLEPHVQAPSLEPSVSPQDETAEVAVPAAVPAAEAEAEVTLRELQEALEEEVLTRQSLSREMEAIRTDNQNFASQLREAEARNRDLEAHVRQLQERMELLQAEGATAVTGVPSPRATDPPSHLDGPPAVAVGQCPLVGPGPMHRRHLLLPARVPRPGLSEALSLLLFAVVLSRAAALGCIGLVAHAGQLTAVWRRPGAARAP
UniProt P41143, sequence (whole entry, looked up): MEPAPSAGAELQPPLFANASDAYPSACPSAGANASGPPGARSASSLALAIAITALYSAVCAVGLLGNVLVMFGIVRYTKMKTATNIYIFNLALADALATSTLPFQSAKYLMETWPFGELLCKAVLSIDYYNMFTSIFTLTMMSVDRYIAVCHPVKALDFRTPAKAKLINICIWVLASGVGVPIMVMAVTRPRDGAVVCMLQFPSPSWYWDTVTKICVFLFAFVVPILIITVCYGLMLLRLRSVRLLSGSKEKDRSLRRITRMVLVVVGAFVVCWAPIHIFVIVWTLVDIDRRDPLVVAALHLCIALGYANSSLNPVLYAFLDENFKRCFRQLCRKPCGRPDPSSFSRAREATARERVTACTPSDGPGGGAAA

Series 1
Cell line: A-375
Tested at: 100 µM
Time: 36 h
With CCOC(=O)Nc1ccc(NCc2ccc(F)cc2)cc1N the viability was 118%.
CCCCCCC(=O)O[C@H]1CC[C@H]2[C@@H]3CCC4=CC(=O)CC[C@]4(C)[C@H]3CC[C@]12C gave a viability of 0.851%.
C/C=C(\C)C(=O)N[C@@H](c1ccccc1)[C@@H](O)C(=O)O[C@H]1C[C@@]2(O)[C@@H](OC(=O)c3ccccc3)[C@@H]3[C@]4(OC(C)=O)CO[C@@H]4C[C@H](O)[C@@]3(C)C(=O)[C@H](OC(C)=O)C(=C1C)C2(C)C has a viability of 27.6%.
CCC1(c2cccc(O)c2)CCCCN(C)C1 (stereo not drawn) gave a viability of 112%.
CCC(=O)O[C@H]1CC[C@H]2[C@@H]3CCC4=CC(=O)CC[C@]4(C)[C@H]3CC[C@]12C has a viability of -3.09%.
N[C@@H](Cc1ccc(N(CCCl)CCCl)cc1)C(=O)O gave a viability of 8.14%.
For COc1ccc(OC)c([C@@H](O)[C@H](C)N)c1, the viability was 115%.

Series 2
Compound: O=C1NC(=O)c2c1c1c3ccccc3n3c1c1c2c2ccccc2n1[C@H]1CC[C@@H]3O1
Read-out: enzyme activity
Mode: inhibitor
Tested at: 0.5 µM
Baseline: control
It gave 1.6% for remaining activity (ROS1 (Homo sapiens, UniProt P08922)).
It gave 94.6% for remaining activity (MAP3K8 (Homo sapiens, UniProt P41279)).
ROCK2 (Homo sapiens, UniProt O75116) — remaining activity: 73.7%.
For NEK9 (Homo sapiens, UniProt Q8TD19): remaining activity read 23.4%.
The remaining activity was 56.5% (CAMK1G (Homo sapiens, UniProt Q96NX5)).
PRKD1 (Homo sapiens, UniProt Q15139) — remaining activity: 1.89%.
For GRK5 (Homo sapiens, UniProt P34947): remaining activity read 88.7%.
It gave 3.21% for remaining activity (RET (Homo sapiens, UniProt P07949)).
The remaining activity was 80.4% (CDK7 (Homo sapiens, UniProt P50613)).
For MAP3K2 (Homo sapiens, UniProt Q9Y2U5): remaining activity read 14%.
The remaining activity was 41.5% (PTK2B (Homo sapiens, UniProt Q14289)).
EGFR (Homo sapiens, UniProt P00533) — remaining activity: 78.3%.
For BRSK1 (Homo sapiens, UniProt Q8TDC3): remaining activity read 14.8%.
For DYRK4 (Homo sapiens, UniProt Q9NR20): remaining activity read 87.8%.
CSNK2A2 (Homo sapiens, UniProt P19784) — remaining activity: 4.47%.
The remaining activity was 138% (MAPK10 (Homo sapiens, UniProt P53779)).
For HIPK3 (Homo sapiens, UniProt Q9H422): remaining activity read 49.9%.
Aurora kinase A (AURKA, Homo sapiens, UniProt O14965) — remaining activity: 22.3%.
PKN2 (Homo sapiens, UniProt Q16513) — remaining activity: 15.9%.
It gave 98.8% for remaining activity (DMPK (Homo sapiens, UniProt Q09013)).
Cyclin-dependent kinase 2, with cyclin A (CDK2, Homo sapiens, UniProt P24941) — remaining activity: 15.6%.
The remaining activity was 33.6% (CAMK1D (Homo sapiens, UniProt Q8IU85)).
For SLK (Homo sapiens, UniProt Q9H2G2): remaining activity read 26%.
For NTRK3 (Homo sapiens, UniProt Q16288): remaining activity read 1.41%.

Series 3
Target: Calcium/calmodulin-dependent protein kinase type II subunit alpha (CAMK2A, Homo sapiens, UniProt Q9UQM7)
UniProt Q9UQM7, sequence (whole entry, looked up): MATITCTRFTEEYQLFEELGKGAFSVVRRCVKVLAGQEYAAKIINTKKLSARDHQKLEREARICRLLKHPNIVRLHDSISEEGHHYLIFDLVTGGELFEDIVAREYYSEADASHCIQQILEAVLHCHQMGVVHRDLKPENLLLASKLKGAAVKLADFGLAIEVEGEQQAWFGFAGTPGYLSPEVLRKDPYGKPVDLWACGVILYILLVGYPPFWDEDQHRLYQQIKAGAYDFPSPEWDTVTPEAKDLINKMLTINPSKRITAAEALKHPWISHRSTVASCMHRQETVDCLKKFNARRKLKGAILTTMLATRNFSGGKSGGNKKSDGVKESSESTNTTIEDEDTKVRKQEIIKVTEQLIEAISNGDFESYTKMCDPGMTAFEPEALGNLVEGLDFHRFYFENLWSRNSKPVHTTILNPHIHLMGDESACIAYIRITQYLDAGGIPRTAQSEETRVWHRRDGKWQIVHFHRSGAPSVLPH
Read-out: enzyme activity
Mode: inhibitor
Tested at: 10 µM
For CCCC(=O)c1c(O)c(CC2=C(O)C(C)(C)C(=O)C(C(C)=O)=C2O)c(O)c(Cc2c(O)c(CC3=C(O)C(C)(C)C(=O)C(C(C)=O)=C3O)c(O)c(C(=O)CCC)c2O)c1O, the inhibition was -59%.
With O=C1C=C2C(=CCOC2O)O1 (stereo not drawn) the inhibition was -5%.
C=Cc1cc(O)cc2ccc3c(C)c(O)ccc3c12 has an inhibition of 46%.
CC(C)=CCOc1c2occc2cc2ccc(=O)oc12 has an inhibition of 7%.
For C[C@@H]1O[C@@H](O[C@H]2C[C@@H](O)[C@]3(CO)[C@H]4[C@H](O)C[C@]5(C)[C@@H](C6=CC(=O)OC6)CC[C@]5(O)[C@@H]4CC[C@]3(O)C2)[C@H](O)[C@H](O)[C@H]1O, the inhibition was -4%.
For CC(C)[C@@H]1[C@H]2OC(=O)[C@@H]1[C@@H]1CC[C@@H]3CN(C)[C@H]2[C@@]31C, the inhibition was -32%.
The inhibition of CC(=O)[C@H]1CC[C@H]2[C@@H]3C[C@H](O)[C@H]4C[C@@H](O)CC[C@]4(C)[C@H]3CC[C@]12C is reported as -24%.
COc1ccc2c(c1O)-c1c(OC)c(OC)cc3c1[C@H](C2)N(C)CC3 gave an inhibition of 0%.

Series 4
SMILES: Cn1nc(C(F)(F)F)cc1-c1cnc(N2CCc3cc(S(=O)(=O)Nc4c(F)cc(Cl)cc4F)cc(N4CCCC4=O)c32)nc1
Read-out: cell-free assay
Tested at: 10 µM
HTR2A (Homo sapiens, UniProt P28223) — inhibition: 8.54%.
For OPRD1 (Homo sapiens, UniProt P41143): inhibition read 28.7%.
For DRD5 (Homo sapiens, UniProt P21918): inhibition read 42.5%.
It gave 14.6% for inhibition (OPRK1 (Homo sapiens, UniProt P41145)).
CHRM1 (Homo sapiens, UniProt P11229) — inhibition: -15.4%.
CHRM3 (Homo sapiens, UniProt P20309) — inhibition: 7.26%.
The inhibition was 9.44% (OPRM1 (Homo sapiens, UniProt P35372)).

Series 5
Cell line: mouse MPNST tumor cells
Method: high-content immunofluorescence imaging
Item: nuclear SOX9
Tested at: 10 µM
Time: 12 h
Notes: mean of 2 replicates
Baseline: DMSO control
Reading: higher = more nuclear SOX9
C=C1C[C@@H]2[C@H](CC[C@]3(C)C(=O)CC[C@@H]23)[C@@]2(C)C=CC(=O)C=C12: “nuclear SOX9 intensity” 68.6 % of DMSO and 80.5 % of DMSO.
Cc1nnc2ccc(-c3cccc(C(F)(F)F)c3)nn12 — result for “nuclear SOX9 intensity”: 120 % of DMSO.
Under “nuclear SOX9 intensity”, O=C1CN(Cc2ccc(-c3ccc(F)c(CN4CCS(=O)(=O)CC4)n3)cc2)C(=O)N1C1CC1 is recorded as 92.2 % of DMSO.
C[C@@H]1CC[C@H]2[C@@H](C)C(=O)O[C@@H]3O[C@@]4(C)CC[C@@H]1[C@]32OO4: “nuclear SOX9 intensity” 99.3 % of DMSO and 96.2 % of DMSO.
Oc1ccc2c3c1O[C@H]1[C@@H](O)CC[C@@]4(O)[C@@H](C2)N(CC2CCC2)CC[C@]314 — result for “nuclear SOX9 intensity”: 95.5 % of DMSO.
Under “nuclear SOX9 intensity”, CNC(C)(C)Cc1ccccc1 is recorded as 96.2 % of DMSO.
C[N+]1([O-])C2CC(OC(=O)C(CO)c3ccccc3)CC1C1OC12 (stereo not drawn): “nuclear SOX9 intensity” 100 % of DMSO.
Under “nuclear SOX9 intensity”, CN(C)C(=O)Oc1cc(OC(=O)N(C)C)cc(C(O)CNC(C)(C)C)c1 (stereo not drawn) is recorded as 95.8 % of DMSO.
